# Measurements gathered from unrelated publications.
# Lines come from different studies, so protocols differ. Values joined by “and” are separate records of one study, mostly repeats; a detail may differ. ± gives the spread as reported.
SMILES,cell line,test,conditions,endpoint,value
CCn1cc(-c2cc(Cn3ccnc3)cc3c2CCN([C@H](c2cc(OC)ccn2)C2CC2)C3=O)c(C(F)(F)F)n1,NCI-H292,"cell growth, inhibitor",120 h,EC50,19.1 µM
CCCC[C@@H]1NC(=O)[C@H](Cc2ccc(O)cc2)NC(=O)[C@@H]2CCCN2C(=O)[C@H](CC(=O)O)NC(=O)[C@H](C)NC(=O)[C@H](Cc2ccccc2)NC(=O)[C@@H]2CSCCC(=O)N3CN(CN(C3)C(=O)CCSC[C@@H](C(=O)N[C@@H](CNC(=O)CCOCCOCCOCCOCCOCCOCCOCCOCCOCCOCCOCCOCCn3cc(CCC(=O)NCCC(=O)N(C)CC(=O)N(C)CC(=O)N(C)CC(=O)N(C)CC(=O)N(C)CC(=O)N(C)CC(=O)N(C)CC(=O)N(C)CC(=O)N(C)CC(=O)N(C)CC(=O)N[C@H]4CSCCC(=O)N5CN6CN(C5)C(=O)CCSC[C@H](NC(=O)[C@@H](CC(=O)O)NC(=O)[C@H](Cc5cccc7ccccc57)NC(=O)[C@@H]5CCCN5C4=O)C(=O)N[C@@H](CCSC)C(=O)N[C@@H](CCCCNC(=N)N)C(=O)N[C@@H](CC(=O)O)C(=O)N[C@@H](Cc4c[nH]c5ccccc45)C(=O)N[C@@H](CO)C(=O)N[C@@H]([C@@H](C)O)C(=O)N4CCC[C@H]4C(=O)N4C[C@H](O)C[C@H]4C(=O)N[C@@H](Cc4c[nH]c5ccccc45)C(=O)N[C@H](C(N)=O)CSCCC6=O)nn3)C(N)=O)NC1=O)C(=O)CCSC[C@H](NC(C)=O)C(=O)N[C@@H](CC(C)(C)C)C(=O)N1CCC[C@H]1C(=O)N[C@@H](CCC(=O)O)C(=O)N[C@H](C)C(=O)N1CCC[C@H]1C(=O)N[C@@H](Cc1ccc(O)cc1)C(=O)N2,human PBMC with HT-1376 coculture,IL-2 secretion,added: anti-CD3,EC50,0.00069 µM
Cc1ccc(NC(=O)CCCCCC(=O)Nc2ccccc2N)cc1,OCI-Ly1,,"0.1 µM, 120 h",viability,196%
S=C(NCc1ccc2c(c1)OCO2)N1CCN(c2ncnc3c2oc2ccccc23)CC1,"iPSC-derived neurons, 2-week differentiating","metabolic activity, CellTiter-Blue",24 h,EC50,> 10 µM
COc1cnc2cccc(N3CCc4c(cc(Cn5ccnc5C)cc4-c4cn(C)nc4C(F)(F)F)C3=O)c2c1,KG-1,"cell growth, inhibitor",120 h,EC50,> 30 µM
CC(C)NCC(O)c1ccc(O)c(O)c1 (stereo not shown),primary mouse white abdominal adipocytes,"lipolysis, refers to: glycerol release",60 min,EC50,0.0449 µM
Cc1ccc(C=NNC(=O)C2CC(=O)N(c3ccc(F)cc3F)C2)cc1 (stereo not shown),human foreskin fibroblasts CRL-4001,"cell viability, MTT",72 h,EC50,3.9 ± 0.2 µM
[Cl-].[Cl-].[Ru+2].c1cnc2c(c1)ccc1cccnc12.c1cnc2c(c1)ccc1cccnc12.c1csc(-c2ccc(-c3ccc(-c4ccc(-c5nc6c7cccnc7c7ncccc7c6[nH]5)s4)s3)s2)c1,SK-MEL-28,"photocytotoxicity, resazurin","visible light, normoxia",EC50,0.0022 µM
CC1(C)CCC(c2ccc(Cl)cc2)=C(CN2CCN(c3ccc(C(=O)NS(=O)(=O)c4ccc(N[C@H](CCN5CCOCC5)CSc5ccccc5)c(S(=O)(=O)C(F)(F)F)c4)cc3)CC2)C1,canine nodal B-cell lymphoma cells,cell killing,24 h,EC50,0.65 µM
CC(C)NCCCn1c(Sc2cc3c(cc2I)OCO3)nc2c(N)ncnc21,iPSC-derived cardiomyocytes,"concentration-response curve, refers to: MyBP-C protein level",24 h,EC50,4.8 µM
Cc1nn(-c2nc3c(F)cc(F)cc3s2)c(O)c1C(c1ccc(C(F)(F)F)cc1)c1c(C)nn(-c2nc3c(F)cc(F)cc3s2)c1O,THP1-Dual,"IFN reporter gene, inhibitor, luciferase reporter",added: HT-DNA,EC50,11.6 µM and 11.4 µM
CC(C)N(CCCNC(=O)Nc1ccc(C(C)(C)C)cc1)C[C@H]1O[C@@H](n2cc(Br)c3c(N)ncnc32)[C@H](O)[C@@H]1O,OCI-Ly1,,"1 µM, 120 h",viability,95.4%
CCCC[C@@H]1NC(=O)[C@H](Cc2ccc(O)cc2)NC(=O)[C@@H]2CCCN2C(=O)[C@H](CC(=O)O)NC(=O)[C@H](C)NC(=O)[C@H](Cc2ccccc2)NC(=O)[C@@H]2CSCCC(=O)N3CN(CN(C3)C(=O)CCSC[C@@H](C(=O)N[C@@H](CNC(=O)CCOCCOCCOCCOCCOCCOCCOCCOCCOCCOCCOCCOCCn3cc(CCC(=O)NCCC(=O)N(C)CC(=O)N(C)CC(=O)N(C)CC(=O)N(C)CC(=O)N(C)CC(=O)N(C)CC(=O)N(C)CC(=O)N(C)CC(=O)N(C)CC(=O)N(C)CC(=O)N[C@H]4CSCCC(=O)N5CN6CN(C5)C(=O)CCSC[C@H](NC(=O)[C@@H](CC(=O)O)NC(=O)[C@H](Cc5cccc7ccccc57)NC(=O)[C@@H]5CCCN5C4=O)C(=O)N[C@@H](CCSC)C(=O)N[C@@H](CCCCNC(=N)N)C(=O)N[C@@H](CC(=O)O)C(=O)N[C@@H](Cc4c[nH]c5ccccc45)C(=O)N[C@@H](CO)C(=O)N[C@@H]([C@@H](C)O)C(=O)N4CCC[C@H]4C(=O)N4C[C@H](O)C[C@H]4C(=O)N[C@@H](Cc4c[nH]c5ccccc45)C(=O)N[C@H](C(N)=O)CSCCC6=O)nn3)C(N)=O)NC1=O)C(=O)CCSC[C@H](NC(=O)[C@H](C)NC(C)=O)C(=O)N[C@@H]([C@@H](C)CC)C(=O)N[C@@H](CCC(=O)O)C(=O)N[C@@H](CCC(=O)O)C(=O)NCC(=O)N[C@@H](CCC(N)=O)C(=O)N[C@@H](Cc1ccc(O)cc1)C(=O)N2,human PBMC with HT-1376 coculture,IL-2 secretion,added: anti-CD3,EC50,0.0081 µM
C=C1C(=O)O[C@@H]2/C=C(\C)CC/C=C(\C)CC[C@@H]12,iPSC-derived cardiomyocytes,"concentration-response curve, refers to: MyBP-C protein level",,EC50,> 50 µM
[Cl][Ru][Cl].c1cnc2c(c1)ccc1cccnc12.c1cnc2c(c1)ccc1cccnc12.c1cnc2c(c1)ccc1cccnc12,SK-MEL-28,,"normoxia, added: visible light 400-700 nm, 100 J/cm2",EC50,22 µM
C[C@]12CCCN1CC1=NNC(=O)c3cc(F)cc4[nH]c2c1c34,SW948 colorectal cancer cells,cell viability,"concentration not given, added: with temozolomide",EC50,> 3 µM
CCn1c(=O)/c(=C2\Sc3ccccc3N2C)s/c1=C\c1cccc[n+]1CC,iPSC-derived cardiomyocytes,"concentration-response curve, refers to: MyBP-C protein level",,EC50,> 50 µM
C[C@H](CCC(=O)O)[C@H]1CC[C@H]2[C@@H]3CC[C@@H]4C[C@H](O)CC[C@]4(C)[C@H]3C[C@H](O)[C@]12C,Caco-2 (undifferentiated),"FGF19 secretion, agonist, ELISA",,EC50,0.00045 µM
CCNC(=O)c1noc(-c2cc(C(C)C)c(O)cc2O)c1-c1ccc(CN2CCOCC2)cc1,iPSC-derived cardiomyocytes,"concentration-response curve, refers to: MyBP-C protein level",24 h,EC50,1.6 µM
O=C(NN=Cc1ccccc1)C1CC(=O)N(c2ccc(F)cc2F)C1 (stereo not shown),human foreskin fibroblasts CRL-4001,"cell viability, MTT",72 h,EC50,> 500 µM
COc1cc(/C=C/c2ccc(O)cc2)cc(OC)c1,iPSC-derived cardiomyocytes,"concentration-response curve, refers to: MyBP-C/MYH ratio",24 h,EC50,16.8 µM
[Cl-].[Cl-].[Ru+2].c1cnc2c(c1)ccc1cccnc12.c1cnc2c(c1)ccc1cccnc12.c1csc(-c2ccc(-c3ccc(-c4nc5c6cccnc6c6ncccc6c5[nH]4)s3)s2)c1,SK-MEL-28,"cell viability, resazurin","hypoxia 1% O2, added: green visible light",EC50,~1 µM
C=C1C(=O)O[C@H]2[C@H]1CC/C(C)=C/CC[C@@]1(C)O[C@@H]21,iPSC-derived cardiomyocytes,"concentration-response curve, refers to: MyBP-C/MYH ratio",24 h,EC50,8.5 µM
O=C(NN=Cc1ccc([N+](=O)[O-])s1)C1CC(=O)N(c2ccc(F)cc2F)C1 (stereo not shown),human foreskin fibroblasts CRL-4001,"cell viability, MTT",72 h,EC50,10.6 ± 2.1 µM
C[n+]1cc2c3c(ccc2c2ccc4cc5c(cc4c21)OCO5)OCO3,iPSC-derived cardiomyocytes,"concentration-response curve, refers to: MyBP-C/MYH ratio",24 h,EC50,7.2 µM
COc1cccc2c1C(=O)c1c(O)c3c(c(O)c1C2=O)C[C@@](O)(C(=O)CO)C[C@@H]3O[C@H]1C[C@H](N)[C@H](O)[C@H](C)O1,human foreskin fibroblasts CRL-4001,"cell viability, MTT",72 h,EC50,0.33 ± 0.04 µM
CCn1c(=Cc2cccc[n+]2C)sc(=C2Sc3ccccc3N2C)c1=O,iPSC-derived cardiomyocytes,"concentration-response curve, refers to: MyBP-C protein level",,EC50,> 50 µM
CCn1cc(-c2cc(Cn3ccoc3=N)cc3c2CCN([C@@H](C)c2cc(OC)ccn2)C3=O)c(C(F)(F)F)n1,NCI-H292,"cell growth, inhibitor",120 h,EC50,0.0288 µM
